Results pooled from the literature.
± marks the error that the study gave.
cyp121: Mycocyclosin synthase (cyp121, Mycobacterium tuberculosis, UniProt P9WPP7)

Protein sequences, listed by entry. Tags and fused reporters are not part of them. Lines headed by an entry give the natural chain unless they say otherwise; changes in a name come on top. Residues count along the entry.
UniProt P9WPP7, whole entry: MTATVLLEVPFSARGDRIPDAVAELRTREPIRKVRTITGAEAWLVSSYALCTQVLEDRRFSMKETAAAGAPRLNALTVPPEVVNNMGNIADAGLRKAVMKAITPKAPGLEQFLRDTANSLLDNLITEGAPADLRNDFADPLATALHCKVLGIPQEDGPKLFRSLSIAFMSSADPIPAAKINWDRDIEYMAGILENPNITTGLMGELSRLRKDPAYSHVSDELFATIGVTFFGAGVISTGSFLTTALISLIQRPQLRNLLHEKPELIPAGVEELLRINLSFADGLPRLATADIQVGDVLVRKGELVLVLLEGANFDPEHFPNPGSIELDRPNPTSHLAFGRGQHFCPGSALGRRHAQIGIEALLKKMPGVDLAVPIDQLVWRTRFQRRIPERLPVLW
UniProt O39928, 2424-3014 limits assumed: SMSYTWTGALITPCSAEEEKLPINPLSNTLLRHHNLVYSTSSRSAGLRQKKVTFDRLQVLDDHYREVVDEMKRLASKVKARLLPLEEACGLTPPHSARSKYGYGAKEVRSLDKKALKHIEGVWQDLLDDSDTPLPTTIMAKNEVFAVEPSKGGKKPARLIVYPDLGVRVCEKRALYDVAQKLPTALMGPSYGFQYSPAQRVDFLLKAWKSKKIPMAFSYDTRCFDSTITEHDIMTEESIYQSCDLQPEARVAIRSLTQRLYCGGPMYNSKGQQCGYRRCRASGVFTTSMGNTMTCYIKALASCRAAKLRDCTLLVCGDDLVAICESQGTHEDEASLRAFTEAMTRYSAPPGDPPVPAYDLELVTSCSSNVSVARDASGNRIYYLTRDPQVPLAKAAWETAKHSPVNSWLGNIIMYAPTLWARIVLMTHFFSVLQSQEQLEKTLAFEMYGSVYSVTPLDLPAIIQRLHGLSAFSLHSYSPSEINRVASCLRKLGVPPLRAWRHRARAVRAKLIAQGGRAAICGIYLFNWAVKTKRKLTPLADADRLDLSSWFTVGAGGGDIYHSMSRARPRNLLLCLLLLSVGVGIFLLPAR
UniProt P08312, whole entry: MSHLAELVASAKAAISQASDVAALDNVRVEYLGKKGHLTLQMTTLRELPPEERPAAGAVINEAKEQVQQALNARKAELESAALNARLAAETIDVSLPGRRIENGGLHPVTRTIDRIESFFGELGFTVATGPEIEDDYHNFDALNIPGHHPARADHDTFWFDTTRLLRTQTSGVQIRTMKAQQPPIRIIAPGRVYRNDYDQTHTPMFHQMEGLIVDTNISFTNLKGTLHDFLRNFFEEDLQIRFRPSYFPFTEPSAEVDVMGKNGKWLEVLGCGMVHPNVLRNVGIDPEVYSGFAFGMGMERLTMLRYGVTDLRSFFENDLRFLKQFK
UniProt O15245, whole entry G465R: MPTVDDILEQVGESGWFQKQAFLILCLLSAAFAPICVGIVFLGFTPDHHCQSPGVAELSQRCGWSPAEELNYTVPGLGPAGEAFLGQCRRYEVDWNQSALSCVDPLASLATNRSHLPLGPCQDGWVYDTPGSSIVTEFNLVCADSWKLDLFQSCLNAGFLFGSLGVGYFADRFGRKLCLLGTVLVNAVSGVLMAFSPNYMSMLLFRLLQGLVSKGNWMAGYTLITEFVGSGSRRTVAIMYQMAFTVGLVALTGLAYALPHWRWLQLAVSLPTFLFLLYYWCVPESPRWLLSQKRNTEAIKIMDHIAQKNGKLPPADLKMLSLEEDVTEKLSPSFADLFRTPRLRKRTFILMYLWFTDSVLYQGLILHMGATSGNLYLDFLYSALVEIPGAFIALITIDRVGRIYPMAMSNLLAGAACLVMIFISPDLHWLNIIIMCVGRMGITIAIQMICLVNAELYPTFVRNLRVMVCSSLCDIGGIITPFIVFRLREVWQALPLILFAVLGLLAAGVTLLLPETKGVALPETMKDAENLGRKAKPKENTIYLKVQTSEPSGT
UniProt P06241, whole entry, looked up, stated change not applied: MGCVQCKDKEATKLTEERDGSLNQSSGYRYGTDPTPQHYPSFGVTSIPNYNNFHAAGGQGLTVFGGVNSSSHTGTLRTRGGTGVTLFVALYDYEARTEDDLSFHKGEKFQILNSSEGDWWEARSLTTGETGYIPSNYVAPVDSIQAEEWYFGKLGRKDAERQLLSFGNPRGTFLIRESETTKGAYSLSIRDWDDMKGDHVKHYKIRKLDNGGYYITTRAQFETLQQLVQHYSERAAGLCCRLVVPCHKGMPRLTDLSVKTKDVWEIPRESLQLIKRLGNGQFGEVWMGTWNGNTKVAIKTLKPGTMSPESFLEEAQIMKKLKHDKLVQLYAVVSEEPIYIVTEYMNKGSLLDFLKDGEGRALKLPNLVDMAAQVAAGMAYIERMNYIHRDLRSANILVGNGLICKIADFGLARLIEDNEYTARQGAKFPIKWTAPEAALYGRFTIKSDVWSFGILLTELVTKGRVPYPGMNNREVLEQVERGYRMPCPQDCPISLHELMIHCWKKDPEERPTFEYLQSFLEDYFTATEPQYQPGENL
UniProt P07948, whole entry Y508F, looked up: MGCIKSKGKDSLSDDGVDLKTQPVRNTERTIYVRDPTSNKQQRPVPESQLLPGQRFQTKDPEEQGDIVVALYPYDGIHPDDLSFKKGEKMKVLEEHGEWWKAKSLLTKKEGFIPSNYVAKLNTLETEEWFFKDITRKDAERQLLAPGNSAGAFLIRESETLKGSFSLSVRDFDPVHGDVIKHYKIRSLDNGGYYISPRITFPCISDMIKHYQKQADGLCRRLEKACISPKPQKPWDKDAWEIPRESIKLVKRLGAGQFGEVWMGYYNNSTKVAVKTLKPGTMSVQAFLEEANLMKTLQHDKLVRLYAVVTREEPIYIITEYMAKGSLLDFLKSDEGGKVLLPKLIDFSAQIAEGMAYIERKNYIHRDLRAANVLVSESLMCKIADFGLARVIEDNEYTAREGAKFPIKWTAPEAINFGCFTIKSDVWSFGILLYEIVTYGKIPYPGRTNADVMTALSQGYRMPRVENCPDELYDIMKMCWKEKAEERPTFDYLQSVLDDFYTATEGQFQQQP
UniProt P35372, whole entry: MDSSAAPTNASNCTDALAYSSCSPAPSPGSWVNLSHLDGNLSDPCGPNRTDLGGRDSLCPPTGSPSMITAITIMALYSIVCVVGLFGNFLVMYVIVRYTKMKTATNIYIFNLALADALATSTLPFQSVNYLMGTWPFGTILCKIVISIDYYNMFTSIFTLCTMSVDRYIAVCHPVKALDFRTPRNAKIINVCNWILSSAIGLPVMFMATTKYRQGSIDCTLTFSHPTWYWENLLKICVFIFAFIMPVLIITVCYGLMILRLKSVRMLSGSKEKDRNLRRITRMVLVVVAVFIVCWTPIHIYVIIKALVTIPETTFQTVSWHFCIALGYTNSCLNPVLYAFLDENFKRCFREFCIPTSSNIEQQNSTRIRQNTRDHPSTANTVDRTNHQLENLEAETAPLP
UniProt P07395, whole entry partner: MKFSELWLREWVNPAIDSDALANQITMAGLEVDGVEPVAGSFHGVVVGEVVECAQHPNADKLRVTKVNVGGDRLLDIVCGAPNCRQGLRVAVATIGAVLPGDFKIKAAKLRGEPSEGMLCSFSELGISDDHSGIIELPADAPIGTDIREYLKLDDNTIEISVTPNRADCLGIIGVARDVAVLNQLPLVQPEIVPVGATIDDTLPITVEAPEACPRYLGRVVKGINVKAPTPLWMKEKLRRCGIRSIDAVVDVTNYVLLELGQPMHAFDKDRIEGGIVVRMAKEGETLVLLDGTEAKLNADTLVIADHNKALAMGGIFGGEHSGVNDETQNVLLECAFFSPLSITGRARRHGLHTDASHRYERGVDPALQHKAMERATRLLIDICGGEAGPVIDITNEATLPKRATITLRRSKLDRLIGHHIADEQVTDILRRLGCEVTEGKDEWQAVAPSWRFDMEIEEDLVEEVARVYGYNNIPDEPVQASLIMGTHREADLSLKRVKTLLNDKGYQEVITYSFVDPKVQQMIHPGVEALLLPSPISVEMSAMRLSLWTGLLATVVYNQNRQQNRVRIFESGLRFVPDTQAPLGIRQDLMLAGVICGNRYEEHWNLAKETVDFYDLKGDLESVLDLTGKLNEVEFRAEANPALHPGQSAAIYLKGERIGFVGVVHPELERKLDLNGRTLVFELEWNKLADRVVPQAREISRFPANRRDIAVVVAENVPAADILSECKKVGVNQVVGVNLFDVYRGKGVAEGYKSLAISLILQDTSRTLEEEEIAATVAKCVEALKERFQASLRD

COc1ccc(S(=O)(=O)Nc2cccc(C(=O)NC3CCN(c4ncnc5[nH]cnc45)CC3)c2)cc1  viability (A549-ACE2; 22.22 µM): 98.8%
CC(CCN[C@H](CN[C@H](CO)CN1CCC[C@H]1CN[C@H](CN)c1ccccc1)c1ccccc1)c1ccccc1 (stereo partly drawn)  IC50 (Acinetobacter baumannii; bacterial growth; compound alone): > 24000 nM
O=c1ccn([C@@H]2O[C@H](COP(=O)(O)OP(=O)(O)OP(=O)(O)O)[C@@H](O)[C@]2(F)Br)c(=O)[nH]1  IC50 (Genome polyprotein, NS5B polymerase (Hepatitis C virus genotype 5a, UniProt O39928); polymerase activity, inhibitor; Hepatitis C virus, genotype 5a): 1200 nM
CC1(C)CC[C@]2(C(=O)O)CC[C@]3(C)C(=CC[C@@H]4[C@@]5(C)CC[C@H](OC(=O)NCc6ccccc6)C(C)(C)[C@@H]5CC[C@]43C)[C@@H]2C1  AUC(0-inf) (C57BL/6 mice, brain; intraperitoneal, 85 µmol/kg): 68.3 nmol·h/g
CCCCCCCCCCCCNC(=O)N[C@H](C(=O)N[C@H]1/C=C/CCNC(=O)/C=C/[C@H](C)NC1=O)C(C)C  Ki (Proteasome subunit beta type-7 (PSMB7, Homo sapiens, UniProt Q99436); trypsin-like activity, inhibitor, Proteasome-Glo; U-266; 24 h): 170 ± 47.9 nM
Oc1cccc(-c2ccc(Cn3ccnc3)cc2)c1  Kd (cyp121; binding): 34000 ± 8900 nM
CC(C)C[C@@H](NC(=O)[C@H](NC(=O)[C@H]1CCCN1)[C@H](C)O)C(=O)N[C@H](Cc1c[nH]cn1)C(=O)N[C@@H](C(=O)N[C@H](Cc1c[nH]cn1)C(=O)N[C@H](CC(N)=O)C(=O)N[C@H](CCCNC(=N)N)C(=O)N[C@H](CCCNC(=N)N)C(=O)N[C@H](CCCNC(=N)N)C(=O)N[C@H](CCCNC(=N)N)C(=O)N[C@H](CCCNC(=N)N)C(N)=O)[C@H](C)O  AUC(0-24h) (human, plasma; oral, 1 160 mg daily, day 14, mean): 62.7 ng·h/mL
C1=C(CCNCc2ccccc2)CCCC1  IC50 (pheS, with beta subunit (Escherichia coli, UniProt P08312); phenylalanine activation, inhibitor): 3.5 µg/mL
CCC(c1ccc(-c2ccc3cc(OC)ccc3c2)cc1)n1ccnc1 (stereo not drawn)  Kd (cyp121; racemate): 500 nM
O=C(NC1CCN(c2ncnc3[nH]cnc23)CC1)c1cccc(NS(=O)(=O)c2ccc(F)cc2)c1  Cmax (mouse, plasma; oral, 70 mg/kg): 44.6 ng/mL
C[C@@H](Cc1ccc(O)cc1)NC[C@@H](O)c1cc(O)cc(O)c1  Kd (Solute carrier family 22 member 1 (SLC22A1, Homo sapiens, UniProt O15245, G465R); binding, frontal displacement chromatography; immobilized SLC22A1 column; with: [3H]MPP+ marker): 6350 nM
Nc1ncnc2c1c(-c1cnc3[nH]ccc3c1)nn2C1CCCC1  Ki (Tyrosine-protein kinase Fyn (FYN, Homo sapiens, UniProt P06241, S254P/T250P/T253P); inhibitor): 5.8 nM
CCC(c1ccc(-c2ccc(OC)cc2)c2cccnc12)n1ccnc1 (stereo not drawn)  Kd (cyp121; binding): 2500 ± 700 nM
CC(C)n1nc(-c2ccc3c(c2)OCO3)c2c(N)ncnc21  Ki (Tyrosine-protein kinase Lyn (LYN, Homo sapiens, UniProt P07948, Y508F); inhibitor): 180 nM
COC(=O)[C@@H]1C=C(OC(=O)c2ccc(O)c(Br)c2)C(=O)[C@H]2[C@@]1(C)CC[C@H]1C(=O)O[C@H](c3ccoc3)C[C@]21C  EC50 (Mu-type opioid receptor (OPRM1, Homo sapiens, UniProt P35372); forskolin-induced cAMP inhibition, agonist; CHO-K1 expressing human MOR): 17 ± 7 nM
